Measurements gathered from unrelated publications.
Each line is one published result; not all experiments were run side by side. Numbers after ± are the reported error.

Compound	assay	test system	conditions	scale	measurement	value
NC1(C(=O)N[C@@H](CCO)c2ccc(Cl)cc2)CCN(c2nc[nH]c3nccc2-3)CC1	–	metastatic CRPC patients	480 mg b.i.d., any grade, treatment-related, with: enzalutamide 160 mg daily	–	incidence of Fatigue	20%
C/C(=N\c1ccc(O)cc1)c1cc2ccccc2n1C	–	rat plasma	1000 ng/mL, 15 days, -80 °C	reference: nominal concentration	remaining compound	91.3 ± 1.8%
Cn1cc([C@H]2C[C@H]3CSC(N)=N[C@@]3(c3ccc(F)cc3F)CO2)cn1	–	male 129/SVE mouse, CSF	subcutaneous, 10 mg/kg, 6 h	–	CSF concentration	33 nM
Cn1cc(-c2cn3nccc3c(-c3cnn([C@]4(CC#N)C[C@@H](C#N)C4)c3)n2)cn1	–	healthy humans, plasma	oral, 10 mg twice daily, day 200, fed	–	average concentration	168 ng/mL
Cc1ccc(C)c(OCCCC(C)(C)C(=O)O)c1	measured: CL/F	human subjects, plasma	oral, dose not given, with: lopinavir-ritonavir	reference: with over without lopinavir-ritonavir	geometric mean ratio	1.69
CCc1nc(C(N)=O)c(Nc2ccc(N3CCC(N4CCN(C)CC4)CC3)c(OC)c2)nc1NC1CCOCC1	–	Japanese patients, plasma	oral, 300 mg, cycle 0 day -2, single dose, median	–	Cmax	292 ng/mL
C[C@H]1O[C@@H](O[C@H]2[C@@H](O)C[C@H](O[C@H]3[C@@H](O)C[C@H](O[C@H]4CC[C@@]5(C)[C@H](CC[C@@H]6[C@@H]5C[C@@H](O)[C@]5(C)[C@@H](C7=CC(=O)OC7)CC[C@]65O)C4)O[C@@H]3C)O[C@@H]2C)C[C@H](O)[C@@H]1O	measured: diarrhoea	healthy men	oral, dose not given, 8 days, treatment-emergent, crossover trial	–	subjects with adverse event	0%
Cn1nc2c(=O)n(C3CC3)cnc2c1[C@](O)(c1cnc(C(F)(F)F)c(Cl)c1)C(F)(F)F	–	humanized SCID mouse, uninfected, blood	oral, 30 mg/kg single dose	–	AUC0-last	296 µM·h
CNCc1ccc(-c2[nH]c3cc(F)cc4c3c2CCNC4=O)cc1	–	human patients	oral, 600 mg twice daily, grade 2	–	diarrhoea incidence	0%
Cc1cc(-c2nnc(N)nc2-c2ccc(F)cc2)cc(Cl)n1	measured: Diarrhea	human phase Ia/Ib mCRPC, immunotherapy-naive	oral, dose not given	–	patients with treatment-related adverse events	12.3%
N#Cc1ccc(C(c2ccc(C#N)cc2)n2cncn2)cc1	–	human patients, plasma	oral, 5 mg daily	–	unbound Cmax at steady state	0.22 ± 0.03 µM
Cc1ccc(Sc2ccccc2N2CCNCC2)c(C)c1	measured: Nausea	healthy adult men	oral, 5 mg single dose, 10 day	–	participants with TEAE	0%
CCn1cc(C(=O)N2CCOCC2)c(=O)c2cc(NC3Cc4ccccc4C3)cnc21	–	human male, fed, plasma	oral, 900 mg twice daily, day 1, tablet, arithmetic mean	–	half-life	4.93 h
NC1(C(=O)N[C@@H](CCO)c2ccc(Cl)cc2)CCN(c2nc[nH]c3nccc2-3)CC1	–	Chinese/Asian patients	dose not given	reference: rest of world	steady-state exposure difference	< 15%
CNCCOC12CC3(C)CC(C)(CC(Cn4ncc(-c5ccc(N6CCc7cccc(C(=O)Nc8nc9ccccc9s8)c7C6)nc5C(=O)O)c4C)(C3)C1)C2	–	beagle dog, male, anaesthetised	intravenous bolus, 0.03 mg/kg, 15 min	reference: baseline	mean arterial pressure change	-2%
O=C(O)CCC(=O)O.[2H]C([2H])([2H])Oc1cc(C)c2[nH]ccc2c1CN1CC[C@@H](C2CC2)C[C@H]1c1ccc(C(=O)O)cc1	ECG	healthy Chinese subjects	oral, 200 mg once daily, multiple ascending dose	–	TEAE T wave abnormality	0%
Cc1cc2sc(N)nc2c2cccnc12	–	female BALB/c mice, plasma	intraperitoneal, 30 mg/kg	–	dose-normalised AUC(0-t)	1520 kg·ng·h/mL/mg
Cc1ccc(O)c(-n2nc3ccccc3n2)c1	–	human aged 11-16 years	concentration not given, spray sunscreen, 95th percentile	–	daily dermal exposure dose	2890 ng/kg/day
N#Cc1ccc2c(c1)[C@H]1CCCN(C(=O)c3ccc4[nH]cnc4c3)[C@H]1C2	–	human, male	360 mg, end of trial	–	androstenedione level	4.7 nmol/L
CCc1cc(C(=O)NC)c2nccc(N3CCc4c(cc(Cn5ccnc5)cc4-c4cn(C)nc4C(F)(F)F)C3=O)c2c1	–	Sprague Dawley rat	oral, 100 mg/kg twice daily, 7 days	reference: vehicle	spleen weight change	-22.4%

Compound	assay	test system	conditions	scale	measurement	value
CN[C@@H](C)C(=O)N[C@H]1CN(S(=O)(=O)c2cccc(S(=O)(=O)N3CC[C@H]4CC[C@@H](C(=O)NC(c5ccccc5)c5ccccc5)N4C(=O)[C@@H](NC(=O)[C@H](C)NC)C3)c2)CC[C@H]2CC[C@@H](C(=O)NC(c3ccccc3)c3ccccc3)N2C1=O	LC-MS/MS	human, advanced solid tumours, plasma	intravenous, 4 mg weekly, day 15	–	AUC(0-t)	102 ± 36.9 ng·h/mL
O=C(Nc1nc2cccc(-c3ccc(CN4CCS(=O)(=O)CC4)cc3)n2n1)C1CC1	measured: ankle fracture	human rheumatoid arthritis patients	oral, 30 mg once daily, 4 weeks, regardless of relatedness	–	treatment-emergent adverse events	0%
CC#CC(=O)N1CCC[C@H]1c1nc(-c2ccc(C(=O)Nc3ccccn3)cc2)c2c(N)nccn12	noncompartmental analysis	human, control subjects, plasma	oral, 50 mg, geometric mean	–	unbound AUC(0-t)	3.2 ng·h/mL
Cc1noc(C)c1Cn1cc(N2C(=O)CN(Cc3cccc(O)c3)C2=O)cn1	–	pooled rat liver microsomes Sprague-Dawley	50 µM, 30 min, pH 7.4	–	remaining parent	72 % peak area
O=C(O)CCCOc1ccc(F)cc1-c1cc(-c2ccccc2C(F)(F)F)n(-c2ccccc2)n1	–	Crl:CD(SD) rat, male, serum	iv, 25 µg/kg, 14 days	–	chloride	106.3 ± 0.9 mEq/L
O=C(N[C@H](Cc1c[nH]c2ccccc12)C(=O)Nc1ccncc1)c1ccc(-c2ccc(F)c(C(F)(F)F)c2)cc1F	–	Swiss Webster mouse, female, brain	oral, 50 mg/kg, 8 h, 20% HPβCD vehicle	–	concentration	1350 nM
COc1ccc([C@@H](O)c2cc(-c3ncnc4cc(N5CCOCC5)ccc34)c(F)cc2Cl)nn1	–	locally advanced rectal cancer patients	150 mg, with: capecitabine and radiotherapy	–	blood lymphatic disorder TEAE	33%
COc1cc(N2CCC3(CCN(C)CC3)CC2)ccc1Nc1ncc(Cl)c(Nc2ccccc2P(C)(C)=O)n1	population PK model	human	oral, final model without outliers	–	V2/F	295 L
CCn1c(=O)c(-c2cc(NC(=O)Nc3ccccc3)c(F)cc2Br)cc2cnc(N)cc21	ultracentrifugation	human, hepatic impairment moderate or matched healthy, plasma	oral, 50 mg single dose	–	unbound fraction at Cmax	0.134%
CCNC(=O)[C@@H]1CCCN1C(=O)[C@H](CCCNC(=N)N)NC(=O)[C@H](CC(C)C)NC(=O)[C@@H](CC(C)C)NC(=O)[C@H](Cc1ccc(O)cc1)NC(=O)[C@H](CO)NC(=O)[C@H](Cc1c[nH]c2ccccc12)NC(=O)[C@H](Cc1c[nH]cn1)NC(=O)[C@@H]1CCC(=O)N1	–	healthy premenopausal women, plasma	intramuscular, 3.75 mg monthly depot, day 29, 696 h	–	steady-state concentration	1.7 ± 1.2 ng/mL
Cc1cc(-c2nccc3c2ccn3CC(=O)Nc2ccc(-c3cnccn3)cn2)ccn1	–	human	15 mg once daily, multiple ascending dose	–	subjects with Dysgeusia adverse event	11.1%
CC(C)(C(=O)N1CCOc2c(C#N)cncc2C1)C(F)F	measured: disturbance in attention	human	oral, 20 mg twice daily, 14 days, multiple ascending dose	–	subjects with adverse event	12.5%
O=C1CCc2ccc(OCCCCN3CCN(c4cccc(Cl)c4Cl)CC3)cc2N1	measured: Hypertension	patients, CYP2D6 ultrarapid metabolizers	dose not given, long-acting oral or depot	–	adverse event incidence	25%
COc1cc2c3c(n(CCCN4CCOCC4)c(=O)c2cc1OC)-c1cc2c(cc1C3=O)OCO2	–	beagle dog, male, plasma	intravenous infusion, 50 mg/m^2, 1 h infusion, vehicle 1	–	AUC(0-inf)	1500 ± 693 ng·h/mL
NC(CO)(CO)CCc1ccc(Sc2cccc(OCc3ccccc3)c2)cc1Cl	–	human, supine	oral, 3 mg, 0 to 24 h, alone	–	pulse rate AUEC, geometric mean	1280 h×bpm
NCCONC(=O)[C@@H]1CC[C@@H]2CN1C(=O)N2OS(=O)(=O)O	measured: leading to permanent discontinuation	healthy Chinese men	intravenous, 1 g, treatment-related	–	adverse event incidence	0%
C[C@H](CCC(=O)NCC(=O)O)[C@H]1CC[C@H]2[C@@H]3[C@H](O)C[C@@H]4C[C@H](O)CC[C@]4(C)[C@H]3CC[C@]12C	–	human, plasma	endogenous control diurnal	reference: daily mean concentration	relative peak deviation	193 ± 22%
COc1ccc2c(=O)n(C)c(-c3ccccc3)nc2c1	–	male Sprague-Dawley rat, small intestine	oral, 30 mg/kg, 0.5 h	–	tissue concentration	300000 ng/g
CCN1CCN(Cc2ccc(Nc3ncc(F)c(-c4cc(F)c5nc(C)n(C(C)C)c5c4)n3)nc2)CC1	population PK model	human, plasma	oral	–	maximum absorption rate	94.1 µmol/h
C=CCN1CC(=O)N2[C@@H](Cc3ccc(O)cc3F)C(=O)N(Cc3cccc(N4CC(N5CCN(CC)CC5)C4)n3)C[C@@H]2N1C(=O)NCc1ccccc1	–	advanced solid tumour patients	oral, 80 mg twice daily, any grade, dose-escalation	–	treatment-related diarrhoea	0%
